Results from different studies.
Each numbered part is a random draw from the data of one study; scales do not carry over between parts. Substitutions count along the parent as printed.

Study 1 — method: protein-binding microarray; form: double-stranded DNA, one strand shown; medium: in vitro; tested at: not given; direction: higher = stronger binding
Target: Max-binding protein MNT, bHLH-zipper, MAX partner unstated (MNT, Homo sapiens, UniProt Q99583, residues 220-300)
Notes: k-mer, scored over probes, only values ≥0.25
Construct (chain): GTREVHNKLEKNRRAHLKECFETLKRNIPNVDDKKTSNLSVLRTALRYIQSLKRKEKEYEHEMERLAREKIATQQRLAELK
Strand	E-score
CGCATGTA	0.396
ACGGGGTA	0.274
CCGTCCAC	0.281
CGTGCCTC	0.325
ACAATGTG	0.321
CACGTGCC	0.496
CTGCACAC	0.309
CCACGAGG	0.47
GCATGCGA	0.409
ATACCACG	0.357

Study 2 — target: CCNF, cyclin fold, Cln2 fusion (human); method: yeast growth competition, sequencing; medium: yeast; notes: strong parent motif; reference: not given; direction: higher = stronger binding
Starting sequence: SAMHD1 docking peptide (human); ASKSRVQLFKDDP
Change	normalised enrichment score
ASKSRFQLFKDDP [V6F]	0.372
ASKSRVQLFKEDP [D11E]	1.4
ASKSRVQVFKDDP [L8V]	0.0729
ASKDRVQLFKDDP [S4D]	0.114
ASKSRVQLFKDQP [D12Q]	0.705
ASKSRVQLFKLDP [D11L]	0.578

Study 3 — method: RNA Bind-n-Seq; form: RNA; medium: in vitro; tested at: 20 nM; notes: 6-mer, flanks averaged, single round; with: 150 mM LiCl; reference: input library; direction: higher = stronger binding
Target: TAR DNA-binding protein 43, full length, His tag (TARDBP, Homo sapiens, UniProt Q13148, residues 1-414)
Strand	6-mer enrichment (R)
GCGCGC	1.08
UUGGAA	0.991
AGGGAC	1.03
GUGGAU	1.19
UAAUGA	0.919
AAGUCU	0.825
CAACGC	0.83
GGUACG	1.03

Further values, each from its own experiment
Substance	target	assay	system	conditions	scale	measurement	result
PhoQ, residues 284 288 289 292 302 303 MLMVEA	PhoP, residues 12 14 15 18 19 LYFRQ (Escherichia coli, UniProt P23836)	Sort-seq, refers to: YFP reporter	E. coli	PhoQ-PhoP variant library, with: 10 µM Mg2+	reference: high Mg2+ state, higher = stronger signaling	fold induction	5.31

Repeated from above (study 3):
Strand	6-mer enrichment (R)
GGUACG	1.03
